Assay results collected from several papers.
Lines come from different studies, so protocols differ. Values joined by “and” are separate records of one study, mostly repeats; a detail may differ. Numbers after ± are the reported error.

`O=C1CCc2ccc(OCCCCN3CCN(c4cccc(Cl)c4Cl)CC3)cc2N1` — result for “adverse event incidence”: 1.9% (item: Hypertension; patients, CYP2D6 intermediate metabolizers; dose not given, long-acting oral or depot).
`Cc1c(-c2ccc(N3CCc4cccc(C(=O)Nc5nc6ccccc6s5)c4C3)nc2C(=O)O)cnn1CC12CC3(C)CC(C)(C1)CC(OCCNCC[C@H](O)CO)(C3)C2`: “mean arterial pressure change” 1 mmHg (beagle dog, male, anaesthetised; intravenous infusion, 0.01 mg/kg/min, 90 min; baseline: baseline).
`CNC(=O)c1ccc(-c2cnc3ncc(Cc4ccc5ncccc5c4)n3n2)cc1F`: “Pyrexia dose reduction/interruption” 0% (Japanese patients; oral, 400 mg, grade 3/4).
For `COc1ccc2c(c1)CN(C(=O)CCN1CCC(Cc3ccccc3)CC1)CC[S@@+]2[O-]`, the urinary excretion was 7.07 ± 1.7% (healthy male volunteers, urine; intravenous, 0.01 mg/kg; baseline: dose).
With `CC=CC1CCC(C2CCC(CCC)CC2)CC1` (stereo not drawn) the concentration was 1.8 ng/mL (item: compound; human pregnant women, male fetuses, cord serum; dose not given, paired maternal-cord samples, mean).
For `C[C@@H]1CN(c2c(F)c(N)c3c(=O)c(C(=O)O)cn(C4CC4)c3c2F)C[C@H](C)N1`, the QTc interval was 317 ± 0.9 ms (male Hartley guinea pig, anaesthetized; intravenous, 30 mg/kg, baseline before infusion).
With `CSc1nc2nnnc(O)c2s1` the HC50 was over 128 µg/mL (haemolysis; sheep erythrocytes; 1 h, pH 7.5).
For `CNC(=O)c1cc(Oc2ccc(NC(=O)N(c3ccc(Cl)c(C(F)(F)F)c3)[C@@H]3O[C@H](C(=O)O)[C@@H](O)[C@H](O)[C@H]3O)cc2)ccn1`, the AUC(0-7.5 h) was 31400 ng·h/mL (mouse, Oatp1b2 knockout, plasma; oral, 10 mg/kg, without rifampin, geometric mean).
With `N#Cc1ccc2c(c1)[C@H]1CCCN(C(=O)c3ccc4[nH]cnc4c3)[C@H]1C2` the SHBG level was 28.7 nmol/L (human females; 10 mg, end of trial).
`CO[C@H]1C[C@@H]2CC[C@@H](C)[C@@](O)(O2)C(=O)C(=O)N2CCCC[C@H]2C(=O)O[C@H]([C@H](C)C[C@@H]2CC[C@@H](O)[C@H](OC)C2)CC(=O)[C@H](C)/C=C(\C)[C@@H](O)[C@@H](OC)C(=O)[C@H](C)C[C@H](C)/C=C/C=C/C=C/1C` has a rectal temperature of 37.7 ± 0.5 °C (healthy adult horses; oral, 0.06 mg/kg, 10 h).
For `Cn1cc(Nc2nccc(-c3ccc4c(c3)CN(C3COC3)CC[C@H]4NC(=O)c3cn(C(C)(C)C)nn3)n2)cn1`, “percent change from baseline” read -3.75% (item: CD4+ T cell count; human, clinical trial, whole blood; 50 mg twice daily, follow-up).
Under “patients with grade ≥3 TEAE”, `Cc1cc(C)c(CNC(=O)c2cc(Cl)c3c(c2C)O[C@@](C)([C@H]2CC[C@H](N(C)C)CC2)O3)c(=O)[nH]1` is recorded as 0% (item: Hypertension; human patients; oral, 200 mg once daily, 1 day onset day 14).
For `Cc1ccc(C(=O)N(CCCN)C(c2nc3snc(C)c3c(=O)n2Cc2ccccc2)C(C)C)cc1` (stereo not drawn), “plasma concentration at 24 h” read 23.4 ng/mL (human patients, plasma; intravenous, 16 mg/day, day 3 of induction course, geometric mean).
For `O=S(=O)(NC1(c2ccc3c(c2)OCO3)CC1)c1cccc(Cl)c1O`, “DLS scattered light intensity” read 903000 counts/s (colloidal aggregate formation, dynamic light scattering; 50 mM potassium phosphate buffer; 200 µM, pH 7.0, 1% DMSO; higher = more aggregation).
Under “subjects with adverse event”, `CC(C)(C(=O)N1CCOc2c(C#N)cncc2C1)C(F)F` is recorded as 0% (item: skin abrasion; human; oral, 15 mg twice daily, 14 days, multiple ascending dose).
Under “daily mean concentration”, `C[C@H](CCC(=O)NCC(=O)O)[C@H]1CC[C@H]2[C@@H]3[C@H](O)C[C@@H]4C[C@H](O)CC[C@]4(C)[C@H]3C[C@H](O)[C@]12C` is recorded as 64.2 ± 9.5 nM (human, plasma; endogenous baseline diurnal).
For `CCc1cc(C(=O)NC)c2nccc(N3CCc4c(cc(Cn5ccnc5)cc4-c4cn(C)nc4C(F)(F)F)C3=O)c2c1`, “change in clinical chemistry or haematology parameter” read 0.64% (item: Lymph; Sprague Dawley rat; oral, 50 mg/kg once daily, 7 days; baseline: vehicle).
`O=C(c1cccnc1-c1ccncc1)N1CCC(O)(Cc2ccccc2)CC1` has a CL/F of 277 L/h (healthy Japanese adults, plasma; oral, 200 mg twice daily, day 14).
`O=S(=O)(NCC(O)c1c(F)cccc1Cl)c1cccc(Cl)c1O` (stereo not drawn) — result for “DLS scattered light intensity”: 208000 counts/s (colloidal aggregate formation, dynamic light scattering; 50 mM potassium phosphate buffer; 200 µM, pH 7.0, 1% DMSO; higher = more aggregation).
`FC(F)(F)c1ccc(CNc2ccc(Cc3c[nH]c4ncc(Cl)cc34)cn2)cn1`: “treatment-related adverse events” 4% (item: Dyspepsia; patients with advanced solid tumours, all cohorts; oral, 1000 mg/day, any grade).
For `Cn1ncc(S(=O)(=O)NC(c2ccccc2)c2ccc(Cl)cc2Cl)c1C(=O)O` (stereo not drawn), “DLS scattered light intensity” read 539000 counts/s (colloidal aggregate formation, dynamic light scattering; 50 mM potassium phosphate buffer; 200 µM, pH 7.0, 1% DMSO; higher = more aggregation).
`CCN1CCN(Cc2ccc(Nc3ncc(F)c(-c4cc(F)c5nc6n(c5c4)[C@H](C)CCC6)n3)nc2)CC1` gave a Tmax of 17 h (human, plasma; 500 mg single dose, median).
For `NC1(C(=O)N[C@@H](CCO)c2ccc(Cl)cc2)CCN(c2nc[nH]c3nccc2-3)CC1`, “incidence of Neutropenia” read 0% (metastatic CRPC patients; 320 mg b.i.d., any grade, treatment-related, added: enzalutamide 160 mg daily).
`COc1ccc2[nH]c([S+]([O-])Cc3ncc(C)c(OC)c3C)nc2c1` (stereo not drawn) gave a t1/2 of 0.99 ± 0.24 h (healthy Chinese volunteers, CYP2C19 intermediate metabolizers; oral, 20 mg, enteric-coated tablets).
For `CCCCCCCOc1ccc(CCC(N)(CO)CO)cc1C(F)(F)F.Cl`, the urinary excretion was 0.151% (healthy men, urine; oral, 0.75 mg once daily, day 21, fed state; baseline: dose).
`CC(C)c1nc(N(C)S(C)(=O)=O)nc(-c2ccc(F)cc2)c1/C=C/[C@@H](O)C[C@@H](O)CC(=O)O` — result for “moderate TEAE incidence”: 0% (healthy human volunteers; oral, 10 mg, 6 days, monotherapy; baseline: subjects).
`Cc1c(Cl)c(C)[n+]([O-])c(Cl)c1-c1noc(-c2cc(O)c(O)c([N+](=O)[O-])c2)n1` — result for “serious TEAE incidence”: 0% (healthy Chinese subjects; oral, 25 mg).
For `Cc1ccc(Sc2ccccc2N2CCNCC2)c(C)c1`, the pyrexia incidence was 0% (healthy adult men; oral, 5 mg single dose, treatment-emergent adverse events).
For `Cn1ncc(S(=O)(=O)NCc2ccccc2Cn2cncn2)c1C(=O)O`, “DLS scattered light intensity” read 556000 counts/s (colloidal aggregate formation, dynamic light scattering; 50 mM potassium phosphate buffer; 200 µM, pH 7.0, 1% DMSO; higher = more aggregation).
`O=C(COc1ccc(Cl)cc1)NC12CC(c3nnc([C@H]4C[C@@H](OC(F)(F)F)C4)o3)(C1)C2`: “treatment-emergent adverse events” 16.7% (item: Epistaxis; healthy humans, both sexes; oral, 45 mg, single ascending dose; baseline: subjects).
For `COc1cccc(OC)c1-c1cc(C(=O)NC2(C(=O)O)C3CC4CC(C3)CC2C4)nn1-c1ccc(C(=O)N(C)CCCN(C)CCCN(C)C(=O)CN2CCN(CC(=O)[O-])CCN(CC(=O)[O-])CCN(CC(=O)[O-])CC2)cc1C(C)C.[177Lu+3]` (stereo not drawn), the tissue uptake was 0.52 %ID/g (mouse, HT-29 xenograft, spleen; 168 h post injection).
`CC(C)n1c(Nc2cccnc2)nc2cnc(Nc3ccc(N4CCN(C)CC4)cc3)nc21` — result for “subjects with adverse event”: 0% (item: hemoglobin increased; healthy male subjects; oral, 100 mg, study, added: itraconazole).
With `CCc1c(-c2ccccc2)c(-c2ccccc2)nn1-c1ccccc1-c1cccc(OCC(=O)O)c1` the concentration was 185 ng/g (male Sprague-Dawley rat, testis; oral, 10 mg/kg, 8 h).
`Cc1c(C(=O)O)ccc2c3n(nc12)[C@@H]1[C@H](C3)N(CC2CC2)[C@@]2(C(=O)Nc3cc(Cl)ccc32)[C@H]1c1cccc(Cl)c1F` has an AUC(0-t) of 37.5 µM·h and 28.6 µM·h and 31.8 µM·h and 29.3 µM·h (female BALB/c nude mice, SJSA-1 xenograft, plasma; oral, 2 mg/kg once daily).
`CC(C)(Sc1ccncc1-c1ccc(C#N)c2ccccc12)C(=O)O` — result for “fraction excreted in urine (0-24 h)”: 1.26% (human, urine; oral, 2.5 mg, added: febuxostat 10 mg).
For `Cl.[2H]C([2H])([2H])CC(=O)c1cnc(NC(=O)C2CC2)cc1Nc1cccc(-c2ncn(C([2H])([2H])[2H])n2)c1OC`, the Ctrough was 207 ng/mL (human, fed, multiple dose; oral, 40 mg twice daily, liquid formulation, day 7, geometric mean).
`CCO[C@H]1CCN(Cc2c(OC)cc(C)c3[nH]ccc23)[C@H](c2ccc(C(=O)O)cc2)C1` — result for “incidence of abdominal distension”: 0% (PNH patients, active haemolysis; oral, 50 mg, 4 weeks, treatment).
For `COc1ccnc(C(N)=O)c1O`, “Freundlich coefficient KF” read 11.4 mL/g (soil adsorption; clay soil; pH 7.6, organic carbon 1.7 %).
With `NCc1cc2c(cc1F)C(=O)N(C1CCC(=O)NC1=O)C2` (stereo not drawn) the half-life was over 3 h (male Beagle dog, whole blood; added: SSAO/VAP-1 inhibitor).
